Published values gathered from unrelated publications.
A part holds a random share of what one study measured.

Block 1 — technique: RNA Bind-n-Seq; form: RNA; sample: in vitro; tested at: not given; baseline: input RNA pool; direction: higher = stronger binding; endpoint: bound/input enrichment
Target: RING finger protein unkempt homolog, zinc fingers 1-6, GST-SBP tag (UNK, Homo sapiens, UniProt Q9C0B0, residues 30-357)
Notes: RNA with constant flanks, human and mouse sites, ends assumed
Residues (chain): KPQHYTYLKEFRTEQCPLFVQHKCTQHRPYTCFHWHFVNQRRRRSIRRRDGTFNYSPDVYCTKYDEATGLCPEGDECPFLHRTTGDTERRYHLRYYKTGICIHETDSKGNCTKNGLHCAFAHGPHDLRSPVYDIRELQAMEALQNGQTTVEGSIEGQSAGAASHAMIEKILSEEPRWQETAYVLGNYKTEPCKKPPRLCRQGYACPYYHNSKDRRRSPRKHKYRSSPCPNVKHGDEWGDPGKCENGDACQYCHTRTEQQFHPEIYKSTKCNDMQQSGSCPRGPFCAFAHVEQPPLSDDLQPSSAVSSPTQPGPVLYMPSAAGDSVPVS
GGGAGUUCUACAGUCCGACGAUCUAUAUCACCAAUGUCCUACAAAAUCCUGACUUGGCUCUGAGAAUGGCUGUGCGGAACAACUUAGCUGGUGCUGAAGAACUCUUUGCCCGGAAAUUUAAUGCUCUCUUCGCCCAGGGAAACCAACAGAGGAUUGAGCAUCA: 0.407 ratio
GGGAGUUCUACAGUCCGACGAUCAGAACAAAUAAAGGGCUCCAGCUACGGCAUGGCAAUGACCAGCGAGUGUUCCGCCUAGAGUUUGUGUCCAACCAAGAAUUCACUGAAAGUGAAUUCAUGAAGUGGAAAGAAGCGAUGUUUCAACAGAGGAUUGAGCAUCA: 0.211 ratio
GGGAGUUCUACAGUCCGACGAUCCUCUCGCCUUGGCAGAAGUAUAAGUCCUACCUCCUUCCCGUGUGUGCAGUUGUGGUGGCAGUGCUUAUGUGGUACAUCUUCCAUGGUGUGGAUUAAUGAUCCUUUAAAUCUCCUGACAUACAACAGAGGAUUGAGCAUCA: 0.0981 ratio
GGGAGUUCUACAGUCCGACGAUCCCUGGCAGAAGGACUGGGGUAGACAUCAAUCGUGUGUCCUGAUUUGAAGGGGGAGGGGGGCUCCUUGGGAAGAUGUCUCAGCCUGAUUUUUUGUCUCUACUCAUUUUAUACCACUGUUUGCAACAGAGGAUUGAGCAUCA: 0.258 ratio
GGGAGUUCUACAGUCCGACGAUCAAAGUCGGGACAGAGAACAAGAUAGAAAGUCCAAGGAGAAAGAAAAGAAGGGAUCUGAUGAUAAAAAGAGUAGUGUGAAGUCCAGUAGUCGAGAAAAGCAGAGUGAAGACACAAACCCUGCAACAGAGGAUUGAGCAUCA: 1.13 ratio
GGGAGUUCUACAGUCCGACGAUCACAAAUGACAACCAGUCAGAAAGUUCAGUAUCUACCCCAUCUGCCUCAUUUGAACCUGAUGUAUGUGAAAAUCCCGAGUCCAAAAAUACAGAGCUUUGUGAGACACCAGCUACCUCUGACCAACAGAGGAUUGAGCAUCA: 0.18 ratio
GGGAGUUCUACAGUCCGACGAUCCUUCCAUAAGGAAGGCUGGUUAUGGAUAUUCAUAAGGUUAUUUCAAAGUUAAUAAAGACAAAGUGGCAACUGUAGAAAGUGUUGCCUCCAAUCUUGGUCCGUAUUUCCAAAGCUUGUAAACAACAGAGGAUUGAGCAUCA: 0.211 ratio
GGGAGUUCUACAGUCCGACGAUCAUGACAGGAAACAUCCCAACAUGGCUUACUGAGCUAGGAAAAACCUGCCCAUUUUUCUUUCCUUUUGAUACCCGGCAAAUGCUUUUUUAUGUAACUGCAUUUGAUCGGGACCGAGCAAUGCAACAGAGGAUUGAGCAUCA: 0.192 ratio
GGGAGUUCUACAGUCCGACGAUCAGACCUUUGGGUACAACCAAAGCUGCAGGAUACAAAGUCAGCCCAGGGAGACCUCCAGGUAGCAUUAAAGCUCUGUCCCGCCUUGCAGAUCUUGGCUAUGGCUGUGGCACUGCUGCCUUUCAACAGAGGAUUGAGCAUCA: 0.154 ratio
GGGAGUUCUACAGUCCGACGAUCUAGUAUUAUAUAUACUGAACCUUCAGACUGUUAAGAAUCAAUGUAACUUUUUUUUUUUACUGUUAUUGUAAGCAACUAAUAUUUCACUGCACGUUUCCCACACUGGUGUUCAUUCCUAACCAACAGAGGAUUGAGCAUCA: 0.859 ratio
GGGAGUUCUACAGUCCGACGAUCAGGAGAAAAAUCAUCUUAUCAGACGAAGGCAAAAUGUAUGGUAGAAAUGAAUUGAUAGCCAGAUACAUCAAACUCAGGACGGGAAAGACAAGGACCAGGAAGCAGGUGUCUAGUCACAUUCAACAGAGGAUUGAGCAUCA: 0.589 ratio

Block 2 — technique: universal PBM; form: double-stranded DNA, one strand shown; sample: in vitro; tested at: not given; direction: higher = stronger binding; endpoint: E-score
Target: Sal-like protein 4, full length isoform B (SALL4, Homo sapiens, UniProt Q9UJQ4-2, residues 1-616)
Notes: 8-mer, flanks averaged, mean of replicates
ATGCGGTC: -0.00043
CTATTGGC: -0.0367
AATAGGCT: 0.0584
AGCACACT: 0.141
TGTTCTAA: 0.301
AACATGAT: 0.255
AGATGAAG: 0.0376
CGCTAAGC: -0.13
ACTCATGC: -0.0301
AACTTTGA: 0.109
ATCCGTTC: -0.0385
CAAGGAGG: -0.113
CTGGCACC: -0.183
CATAGGAG: 0.0718
GGTGGAGA: -0.288
AGCTGTGC: -0.2
CAAGAGTG: -0.047
AAGCCTTA: 0.0182
GCACAGAA: -0.0405
GAGGTGAC: -0.0326
AGCGACTC: -0.243
AGTCGTAG: -0.00407
CTGCCTAC: 0.105
AGTTATAA: 0.37
ATCCGACG: -0.146

Block 3 — technique: protein binding microarray; form: double-stranded DNA, one strand shown; sample: in vitro; tested at: not given; baseline: not given; direction: higher = stronger binding; endpoint: E-score
Target: Histone acetyltransferase KAT6A, winged helix 2, GST fusion (KAT6A, Homo sapiens, UniProt Q92794, residues 85-181)
Notes: 8-mer, flanks averaged, mean of 2 arrays, mostly near background
Target sequence (chain): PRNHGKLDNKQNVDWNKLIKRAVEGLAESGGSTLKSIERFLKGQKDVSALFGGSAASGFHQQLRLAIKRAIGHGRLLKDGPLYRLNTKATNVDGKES
AAGGGTGA: 0.000725
AGCAGCAG: 0.161
GTTGTCTA: -0.0704
AGCTTAAA: 0.123
GCCCGGAC: 0.0489
ATTTGCTA: 0.0389
GAATCCTA: 0.00686
ACTCGGCA: 0.131
GATCCGGC: 0.113
TCGTGGCA: 0.0532
GAGAGTAA: 0.128
CTCACTCA: 0.0554
ACAACGAG: -0.0966
GAGTATAC: -0.0378
AATATACG: -0.165
GCTGTCCA: 0.119
ACGCGCTC: 0.134
AACAATCA: 0.072
AGCAGTTC: 0.0223
CGATTACG: -0.288

Block 4 — technique: RNA Bind-n-Seq; form: RNA; sample: in vitro; tested at: 200 nM; notes: whole 134-nt RNA, ends assumed; added: 150 mM KCl; baseline: input library; direction: higher = stronger binding; endpoint: log2 enrichment
Target: Fragile X messenger ribonucleoprotein 1, C-terminal low-complexity region (Fmr1, Mus musculus, UniProt P35922)
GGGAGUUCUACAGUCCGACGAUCUGGCCCUUGUGGCAUGCGGGGAGGAAGAGGUGGCCUCAUGGAUCGUGGUGGUCCCGGUGGAAUGUUCAGAGGUGGCCGUGGUGGAGACAGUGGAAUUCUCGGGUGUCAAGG: 0.0404
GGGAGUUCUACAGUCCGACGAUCUGGGAGGUGGAUUUUGUUUAUUUUUUUAGCUCAUUUCCAGGGUUGGGAAUUUUUUUUUAAUAUGUGUCAUGAAUAAAGUUGUUUUUGAAAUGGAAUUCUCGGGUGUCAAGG: -0.268
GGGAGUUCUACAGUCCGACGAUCUAACUUUAGAGGAGGAUCUGAUGGAUAUGGCAGUGGACGUGGAUUUGGGGACGGCUAUAAUGGGUAUGGAGGAGGACCUGGAGGUGGCAAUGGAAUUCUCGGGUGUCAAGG: 0.178
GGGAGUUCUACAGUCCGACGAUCAGUCCUGUGCUACACAUCGUAUGUACCGAAUCGGUUUUUGGAAAAAGGAAAAAAAGGAAAGUAUUAUGUUACGCCGUUCGGAUCUGCACUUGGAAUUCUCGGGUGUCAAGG: -0.976
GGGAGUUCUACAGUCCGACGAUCCACAGACAACACGCACCCACACAGACACAGAGGGAAGGGGUUGGGAUGGGGACAGGGUGCACAGCAGGGCGUGGUAGGACCCCAGCCCCUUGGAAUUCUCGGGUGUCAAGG: 1.2
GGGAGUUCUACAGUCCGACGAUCAGUCCUGUGCUACACAUCGUAUGUACCGAAUCGGGGUUUGGGGUUUGGGGAAAGGGGAAAGUAUUAUGUUACGCCGUUCGGAUCUGCACUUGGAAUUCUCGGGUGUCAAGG: 0.861
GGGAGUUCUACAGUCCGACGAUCAGUCCUGUGCUACACAUCGUAUGUACCGAAUCGGAAAAGGGAAAAGGGGAAAAGGGGAAAGUAUUAUGUUACGCCGUUCGGAUCUGCACUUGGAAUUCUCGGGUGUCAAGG: 0.0964
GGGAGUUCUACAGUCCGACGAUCCAAGUCCUGUGCUACACAUCGUAUGUACCGAAUCGGGUUUGGGGUUUGGUUUGGGAAAGUAUUAUGUUACGCCGUUCGGAUCUGCACUUCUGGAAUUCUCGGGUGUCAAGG: -0.0245
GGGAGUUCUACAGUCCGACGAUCCCUCAAGUCCUGUGCUACACAUCGUAUGUACCGAAUCGGAGGUGGUUUUUGGAAAGUAUUAUGUUACGCCGUUCGGAUCUGCACUUCCAGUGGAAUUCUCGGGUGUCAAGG: 0.0606
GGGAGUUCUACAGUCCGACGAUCCUGUGCUACACAUCGUAUGUACCGAAUCGGGGUUUUUUUGGGGAAAGGGGAAAAAAAGGGGAAAGUAUUAUGUUACGCCGUUCGGAUCUGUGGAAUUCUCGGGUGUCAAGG: -0.429
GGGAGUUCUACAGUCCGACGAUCUCCUCAAGUCCUGUGCUACACAUCGUAUGUACCGAAUCGGCGGGCGGGCGGGAAAGUAUUAUGUUACGCCGUUCGGAUCUGCACUUCCAGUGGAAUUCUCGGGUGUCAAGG: 1.1
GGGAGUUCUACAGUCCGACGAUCUGGCCCUGGUGGCAUGCGGGGAGGAAGAGGUGGCCUCAUGGAUCGUGGUGGUCCCGGUGGAAUGUUCAGAGGUGGCCGUGGUUGAGACAGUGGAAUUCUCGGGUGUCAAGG: -0.142
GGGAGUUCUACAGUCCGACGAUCUCCUGUGCUACACAUCGUAUGUACCGAAUCGGGGAAAAAAAGGGGUUUUUGGGGAGGGGAAAGUAUUAUGUUACGCCGUUCGGAUCUGCAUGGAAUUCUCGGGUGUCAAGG: 0.645
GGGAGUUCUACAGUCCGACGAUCUGGCCCUGGUGGCAUGCGGGGAGGAAGAGGUGGCCUCAUGGAUCGUGGCGGUCCCGGUGGAAUGUUCAGAGGUGGCCGUGGUGGAGACAGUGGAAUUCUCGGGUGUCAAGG: -0.0409

Block 5 — technique: protein-binding microarray; form: double-stranded DNA, one strand shown; sample: in vitro; tested at: 250 nM; notes: 60-bp whole probe; added: salmon DNA 0.4 mg/ml; baseline: random background probes; direction: higher = stronger binding; endpoint: log fluorescence; shared flanks, not repeated: GCCTAGCAC … GTCTTGATTCGCTTGACGCTGCTG
Target: Interferon regulatory factor 5, full length, phosphomimetic (IRF5, Homo sapiens, UniProt Q13568-2, residues 1-514, K96S/S451D/S453D/S456D/S462D)
GACGGTATCGGTTTTCGGGACGTGCTA: 6.8 z-score
TTAGATATCGGGACTGGATTCGTGCTA: 0.975 z-score
TTAGAACTGACTCTCGATTAGTGCTAG: 0.668 z-score
GACGGCCTGCTACTGCTGACGTGCTAG: -0.618 z-score
GACGGTATCGACTATAGGGACGTGCTA: 2.28 z-score
GACGGGCTCGGTATCGGGACGTGCTAG: 0.366 z-score
CTTCCTCTTTCACTGGTCCTGTGCTAG: 2.83 z-score
TTAGGTGTCGACTTTCGGTTAGTGCTA: 9.38 z-score
TTAGCTATCGGGACTGGATTAGTGCTA: 2.02 z-score
TTAGAACTGCGTATCGATTAGTGCTAG: 3.22 z-score
GACGCTTTCGGTCTCGGGACGTGCTAG: 10.2 z-score
TCATATTTACTCTCTACAACTGTGCTA: 1.17 z-score
GCCGATCTCAGACTGGAGACGTGCTAG: -0.47 z-score
TTAGGTATCCTACTGCTGTAGTGCTAG: -0.277 z-score
ATAGATATCAGACTGGATTAGTGCTAG: 0.367 z-score
GTGTTTTGCCCTATTTAAGAGTGCTAG: 0.692 z-score
TCAGGACTGCTACTGCTTTAGTGCTAG: -0.402 z-score
GACGGTCTCCTAGTGCTGACGTGCTAG: -0.473 z-score
GTAGGTATCGGTTTCGGTTAGTGCTAG: 11 z-score
TCACTTTTCTTTTCTTTACTGTGCTAG: 2.31 z-score
GGCGGTTTCGACTATCGGGACGTGCTA: 7.15 z-score
GACGGTCTCCTCATCCTGACGTGCTAG: -0.2 z-score
GACGATTGCAGTCTCGAGACGTGCTAG: 0.152 z-score
TTAGGACTGGGCTATCGGTTAGTGCTA: 2.22 z-score
GACAGACTGCTTCTCCTGACGTGCTAG: -0.278 z-score
